Results of several laboratories.
Each numbered part is a random draw from the data of one study; scales do not carry over between parts. “And” joins repeats or separate records; there may be more than shown.
Sequence of UniProt P51812 (whole entry, looked up): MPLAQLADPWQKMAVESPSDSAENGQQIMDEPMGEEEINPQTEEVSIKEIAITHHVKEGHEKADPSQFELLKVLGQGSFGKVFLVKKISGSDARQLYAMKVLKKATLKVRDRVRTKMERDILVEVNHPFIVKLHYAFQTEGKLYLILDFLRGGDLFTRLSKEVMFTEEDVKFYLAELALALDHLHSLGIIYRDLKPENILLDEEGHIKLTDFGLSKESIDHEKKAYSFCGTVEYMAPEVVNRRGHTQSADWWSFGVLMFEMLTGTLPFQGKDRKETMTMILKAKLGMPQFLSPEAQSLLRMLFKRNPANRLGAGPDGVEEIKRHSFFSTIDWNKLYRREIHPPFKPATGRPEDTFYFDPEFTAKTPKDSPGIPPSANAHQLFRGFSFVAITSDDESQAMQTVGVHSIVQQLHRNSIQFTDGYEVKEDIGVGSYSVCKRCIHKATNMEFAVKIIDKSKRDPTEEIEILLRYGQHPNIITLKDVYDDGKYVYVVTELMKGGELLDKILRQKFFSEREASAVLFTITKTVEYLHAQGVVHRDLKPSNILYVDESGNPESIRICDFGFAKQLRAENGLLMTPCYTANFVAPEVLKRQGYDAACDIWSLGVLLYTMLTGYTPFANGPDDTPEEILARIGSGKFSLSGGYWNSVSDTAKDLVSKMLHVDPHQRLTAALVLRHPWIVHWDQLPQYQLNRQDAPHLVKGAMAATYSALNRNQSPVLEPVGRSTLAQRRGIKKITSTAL
Sequence of UniProt P48729 (whole entry, looked up): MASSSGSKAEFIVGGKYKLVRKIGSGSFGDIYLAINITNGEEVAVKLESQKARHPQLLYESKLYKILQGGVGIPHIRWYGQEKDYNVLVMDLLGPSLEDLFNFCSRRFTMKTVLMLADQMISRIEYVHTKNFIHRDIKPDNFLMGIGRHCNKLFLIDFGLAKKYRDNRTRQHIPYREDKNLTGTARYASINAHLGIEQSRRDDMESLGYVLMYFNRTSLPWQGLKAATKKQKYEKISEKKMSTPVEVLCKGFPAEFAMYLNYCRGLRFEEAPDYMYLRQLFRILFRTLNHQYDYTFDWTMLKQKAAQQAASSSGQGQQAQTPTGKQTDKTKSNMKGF
Sequence of UniProt P04049 (whole entry, looked up): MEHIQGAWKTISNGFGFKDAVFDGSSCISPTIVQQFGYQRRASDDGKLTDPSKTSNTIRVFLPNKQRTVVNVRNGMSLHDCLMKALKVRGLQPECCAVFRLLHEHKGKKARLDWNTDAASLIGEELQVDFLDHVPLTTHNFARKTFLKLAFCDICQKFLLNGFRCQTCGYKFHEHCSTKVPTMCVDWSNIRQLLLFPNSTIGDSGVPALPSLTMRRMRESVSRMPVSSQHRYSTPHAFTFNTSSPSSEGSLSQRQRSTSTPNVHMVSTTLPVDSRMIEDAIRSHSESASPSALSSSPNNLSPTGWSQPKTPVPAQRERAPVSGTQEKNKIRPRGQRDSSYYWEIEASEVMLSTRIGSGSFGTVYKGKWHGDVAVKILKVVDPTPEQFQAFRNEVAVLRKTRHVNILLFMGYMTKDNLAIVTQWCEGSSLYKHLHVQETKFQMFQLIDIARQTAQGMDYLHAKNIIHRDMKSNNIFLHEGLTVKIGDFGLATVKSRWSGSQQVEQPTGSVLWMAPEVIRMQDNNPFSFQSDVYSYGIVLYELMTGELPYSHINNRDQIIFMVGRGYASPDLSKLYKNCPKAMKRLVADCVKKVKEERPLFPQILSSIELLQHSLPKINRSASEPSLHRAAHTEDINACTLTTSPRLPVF
Sequence of UniProt Q13177 (whole entry, looked up): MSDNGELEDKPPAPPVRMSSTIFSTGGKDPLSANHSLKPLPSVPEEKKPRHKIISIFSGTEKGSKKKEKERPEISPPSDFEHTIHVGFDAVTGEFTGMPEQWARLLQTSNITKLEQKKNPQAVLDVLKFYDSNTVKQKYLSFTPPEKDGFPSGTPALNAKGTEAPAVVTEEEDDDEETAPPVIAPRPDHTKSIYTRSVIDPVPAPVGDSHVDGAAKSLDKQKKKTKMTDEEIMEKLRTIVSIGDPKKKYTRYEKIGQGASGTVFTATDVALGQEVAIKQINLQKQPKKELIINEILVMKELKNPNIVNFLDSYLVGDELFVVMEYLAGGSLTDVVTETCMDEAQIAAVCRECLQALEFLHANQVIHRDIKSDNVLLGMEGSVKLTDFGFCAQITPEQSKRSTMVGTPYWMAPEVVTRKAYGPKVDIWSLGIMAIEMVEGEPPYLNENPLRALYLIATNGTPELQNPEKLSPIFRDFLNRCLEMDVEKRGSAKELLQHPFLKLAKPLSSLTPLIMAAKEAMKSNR
Sequence of UniProt Q9NRM7 (whole entry, looked up): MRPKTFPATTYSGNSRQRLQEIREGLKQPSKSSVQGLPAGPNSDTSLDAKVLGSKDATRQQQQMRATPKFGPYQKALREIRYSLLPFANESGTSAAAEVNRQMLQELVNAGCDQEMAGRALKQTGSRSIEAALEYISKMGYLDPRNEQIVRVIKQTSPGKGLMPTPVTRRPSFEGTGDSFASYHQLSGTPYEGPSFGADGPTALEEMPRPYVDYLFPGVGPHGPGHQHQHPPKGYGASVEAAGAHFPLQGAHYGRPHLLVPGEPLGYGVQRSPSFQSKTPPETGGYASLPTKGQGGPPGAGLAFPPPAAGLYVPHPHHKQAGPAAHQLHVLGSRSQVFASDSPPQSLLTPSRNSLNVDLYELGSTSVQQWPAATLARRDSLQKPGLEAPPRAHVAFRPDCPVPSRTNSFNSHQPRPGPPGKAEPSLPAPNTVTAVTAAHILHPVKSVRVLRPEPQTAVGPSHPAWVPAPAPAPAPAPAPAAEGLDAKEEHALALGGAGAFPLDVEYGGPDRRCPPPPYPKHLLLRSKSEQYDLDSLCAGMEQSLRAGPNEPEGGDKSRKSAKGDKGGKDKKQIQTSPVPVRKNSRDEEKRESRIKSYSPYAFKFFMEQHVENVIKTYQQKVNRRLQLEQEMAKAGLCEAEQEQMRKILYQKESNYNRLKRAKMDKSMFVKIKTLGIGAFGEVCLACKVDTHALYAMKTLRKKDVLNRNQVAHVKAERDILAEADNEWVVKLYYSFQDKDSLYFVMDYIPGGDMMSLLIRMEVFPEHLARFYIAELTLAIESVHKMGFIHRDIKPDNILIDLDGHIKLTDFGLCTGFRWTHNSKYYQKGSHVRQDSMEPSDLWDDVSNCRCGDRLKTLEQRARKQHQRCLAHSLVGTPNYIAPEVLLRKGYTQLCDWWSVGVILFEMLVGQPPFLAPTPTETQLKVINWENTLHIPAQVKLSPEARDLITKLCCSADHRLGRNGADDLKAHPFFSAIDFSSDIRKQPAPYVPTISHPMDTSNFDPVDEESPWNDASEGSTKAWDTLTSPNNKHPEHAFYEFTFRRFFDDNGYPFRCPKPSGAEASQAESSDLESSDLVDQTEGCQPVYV
Sequence of UniProt Q86Z02 (whole entry, looked up): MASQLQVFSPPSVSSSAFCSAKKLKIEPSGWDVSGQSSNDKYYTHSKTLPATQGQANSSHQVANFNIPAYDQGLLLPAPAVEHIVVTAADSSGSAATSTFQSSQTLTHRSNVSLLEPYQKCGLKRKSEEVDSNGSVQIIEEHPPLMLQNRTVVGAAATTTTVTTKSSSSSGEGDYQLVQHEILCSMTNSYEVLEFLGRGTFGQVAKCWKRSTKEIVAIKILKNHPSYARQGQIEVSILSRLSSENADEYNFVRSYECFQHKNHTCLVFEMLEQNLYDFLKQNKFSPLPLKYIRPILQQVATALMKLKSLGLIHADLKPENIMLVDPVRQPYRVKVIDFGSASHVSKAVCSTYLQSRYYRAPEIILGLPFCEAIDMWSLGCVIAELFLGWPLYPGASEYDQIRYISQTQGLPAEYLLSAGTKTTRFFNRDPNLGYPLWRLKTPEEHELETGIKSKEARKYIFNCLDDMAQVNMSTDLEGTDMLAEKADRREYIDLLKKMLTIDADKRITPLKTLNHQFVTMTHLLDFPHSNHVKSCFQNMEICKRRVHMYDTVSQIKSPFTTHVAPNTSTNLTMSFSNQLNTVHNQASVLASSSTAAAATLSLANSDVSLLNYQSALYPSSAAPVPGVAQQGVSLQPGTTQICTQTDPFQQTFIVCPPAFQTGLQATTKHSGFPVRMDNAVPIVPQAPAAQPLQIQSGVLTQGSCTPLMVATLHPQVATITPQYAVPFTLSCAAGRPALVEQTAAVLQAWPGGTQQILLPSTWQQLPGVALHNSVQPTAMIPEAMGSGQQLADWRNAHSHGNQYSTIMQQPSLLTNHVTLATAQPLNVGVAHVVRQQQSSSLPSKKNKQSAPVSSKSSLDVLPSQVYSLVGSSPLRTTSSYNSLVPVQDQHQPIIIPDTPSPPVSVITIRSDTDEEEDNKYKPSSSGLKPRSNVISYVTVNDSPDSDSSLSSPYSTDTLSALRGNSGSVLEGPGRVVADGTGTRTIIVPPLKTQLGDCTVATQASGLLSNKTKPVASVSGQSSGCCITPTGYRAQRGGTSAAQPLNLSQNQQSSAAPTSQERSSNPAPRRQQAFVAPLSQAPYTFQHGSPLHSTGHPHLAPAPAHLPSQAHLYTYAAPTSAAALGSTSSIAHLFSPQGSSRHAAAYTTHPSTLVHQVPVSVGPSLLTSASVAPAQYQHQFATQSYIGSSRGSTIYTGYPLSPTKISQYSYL
Sequence of UniProt P36507 (whole entry, looked up): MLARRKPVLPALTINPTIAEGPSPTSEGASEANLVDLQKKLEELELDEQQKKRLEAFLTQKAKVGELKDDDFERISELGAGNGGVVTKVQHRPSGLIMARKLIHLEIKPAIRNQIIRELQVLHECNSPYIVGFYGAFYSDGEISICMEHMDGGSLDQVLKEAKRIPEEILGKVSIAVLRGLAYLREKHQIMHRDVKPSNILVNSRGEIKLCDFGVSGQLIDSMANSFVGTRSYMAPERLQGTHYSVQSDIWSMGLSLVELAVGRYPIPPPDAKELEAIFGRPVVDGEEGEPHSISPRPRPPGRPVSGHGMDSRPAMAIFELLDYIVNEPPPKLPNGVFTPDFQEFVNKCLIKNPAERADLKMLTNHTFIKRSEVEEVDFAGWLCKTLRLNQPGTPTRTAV

Series 1
Cell line: A-375
Tested at: 100 µM
Time: 18 h
SMILES	viability
Cc1c(N(C)CS(=O)(=O)O)c(=O)n(-c2ccccc2)n1C	93.2% and 113%
CC(=O)OCC1=C(C(=O)O)N2C(=O)[C@@H](NC(=O)Cc3cccs3)[C@H]2SC1	113%
O=C(O)c1cccc(-c2noc(-c3ccccc3F)n2)c1	105%
C=C1c2cccc(O)c2C(=O)C2=C(O)[C@]3(O)C(=O)C(C(N)=O)=C(O)[C@@H](N(C)C)[C@@H]3[C@@H](O)[C@H]12	110%
CCN(CCCc1ccccc1)CCCc1ccccc1	47.3%
CCCCN1CCCC[C@H]1C(=O)Nc1c(C)cccc1C	84.1% and 83.9%
Nc1nc(=O)n([C@@H]2CS[C@H](CO)O2)cc1F	95.7%
CCOc1ccc(Cc2cc([C@@H]3O[C@H](CO)[C@@H](O)[C@H](O)[C@H]3O)ccc2Cl)cc1	96.2%

Series 2
Compound: O=C1CCC(N2Cc3cc(C4CCN(Cc5ccccc5)CC4)ccc3C2=O)C(=O)N1 (centres unmarked)
Medium: plasma
species	route	dose	time	plasma concentration
ICR mouse, male	intravenous	1 mg/kg	6 h	0.018 µg/mL and 0.0124 µg/mL
male Sprague Dawley rats	intravenous	1 mg/kg	0.083 h	0.0915 µg/mL
ICR mouse, male	oral	3 mg/kg	1 h	0.223 µg/mL and 0.259 µg/mL
Sprague Dawley rat, male	oral	3 mg/kg	0.5 h	0.0497 µg/mL and 0.0262 µg/mL and 0.0707 µg/mL
male ICR mice	intravenous	1 mg/kg	2 h	0.0375 µg/mL
Sprague Dawley rat, male	oral	3 mg/kg	1 h	0.0681 µg/mL and 0.0614 µg/mL

Series 3
Target: Protein kinase C iota type (PRKCI, Homo sapiens, UniProt P41743)
Read-out: enzyme activity
Action: inhibitor
Tested at: 0.5 µM
Baseline: control
Residues (P41743 1-596): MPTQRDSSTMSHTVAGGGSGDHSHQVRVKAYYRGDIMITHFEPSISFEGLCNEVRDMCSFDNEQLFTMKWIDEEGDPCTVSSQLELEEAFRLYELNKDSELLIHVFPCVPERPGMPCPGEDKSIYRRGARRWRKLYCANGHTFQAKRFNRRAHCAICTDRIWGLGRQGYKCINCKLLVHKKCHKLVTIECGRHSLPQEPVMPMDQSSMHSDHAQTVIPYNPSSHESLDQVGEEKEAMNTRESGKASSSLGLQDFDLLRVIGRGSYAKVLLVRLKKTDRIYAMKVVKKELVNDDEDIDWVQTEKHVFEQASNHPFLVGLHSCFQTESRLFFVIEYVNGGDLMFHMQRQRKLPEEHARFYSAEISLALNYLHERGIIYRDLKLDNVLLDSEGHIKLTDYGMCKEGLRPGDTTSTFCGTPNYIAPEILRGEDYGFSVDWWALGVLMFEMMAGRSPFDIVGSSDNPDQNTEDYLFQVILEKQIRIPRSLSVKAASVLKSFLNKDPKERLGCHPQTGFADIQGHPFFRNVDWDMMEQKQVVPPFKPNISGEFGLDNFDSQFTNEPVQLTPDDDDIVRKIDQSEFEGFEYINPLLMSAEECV
Compound	remaining activity
CN([C@@H](Cc1ccc(OS(=O)(=O)c2cccc3cnccc23)cc1)C(=O)N1CCN(c2ccccc2)CC1)S(=O)(=O)c1cccc2cnccc12	93.8%
CCN(CC)CCNC(=O)c1c(C)[nH]c(/C=C2\C(=O)Nc3ccc(F)cc32)c1C	103%
CCOc1nc(NC(=O)Cc2cc(OC)ccc2OC)cc(N)c1C#N	100%
O=C1c2ccccc2-c2n[nH]c3cccc1c23	95%
Nc1cccc(-c2cc3c(Oc4cccc(O)c4)ncnc3[nH]2)c1	84.7%
C[C@@H]1CCN(C(=O)CC#N)C[C@@H]1N(C)c1ncnc2[nH]ccc12	103%
Ic1cccc(CSc2nnc(-c3ccncc3)o2)c1	96.4%
c1ccc(-c2cnc(Nc3ccc(OCCN4CCCC4)cc3)s2)cc1	93.1%
COc1cc2ncnc(Nc3cccc(Cl)c3)c2cc1OC	97.5%
Cc1cn(-c2cc(NC(=O)c3ccc(C)c(Nc4nccc(-c5cccnc5)n4)c3)cc(C(F)(F)F)c2)cn1	108%
N#Cc1c(NC(=O)c2cccc3ccccc23)sc2c1CCCC2	95.9%
N#C/C(=C\c1ccc(O)c(O)c1)C(=O)NCc1ccccc1	96.4%
O=c1cc(-c2cccc3c2Sc2ccccc2S3)oc(N2CCOCC2)c1	103%
CN(C)C[C@H]1CCn2c(c(C3=C(c4cn(C)c5ccccc45)C(=O)NC3=O)c3ccccc32)C1	36.2%
Cc1nc2cc3nc(-c4cccs4)cnc3cc2n1C	99.1%
COc1cc2ncnc(Nc3ccc(O)c(Br)c3)c2cc1OC	94%
O=C1C(Cl)=C(N2C(=O)CCC2=O)C(=O)c2ccccc21	96.6%
O=C(Nc1cccc(Nc2nccc(Nc3cccc(C(F)(F)F)c3)n2)c1)C1CC1	91.3%
Cc1cc2ncc(-c3ccccc3)nc2cc1C	98%
O=C(NC(NC(=S)Nc1ccc(F)c([N+](=O)[O-])c1)C(Cl)(Cl)Cl)C(c1ccccc1)c1ccccc1 (centres unmarked)	94%
COc1cc2c(cc1OC)-c1[nH]nc(Nc3cccc(F)c3)c1C2	95.5%
Cn1nc2c3c(cccc31)C(=O)c1ccccc1-2	98.5%
CCN(CC)C(=O)c1ccc(Nc2nc(OCC3CCCCC3)c3[nH]cnc3n2)cc1	97.2%
CCN(CC)CCNC(=O)c1c(C)[nH]c(/C=C2\C(=O)Nc3ccc(Cl)cc32)c1C	91.9%
c1ccc(-c2[nH]ncc2-c2ccnc3ccccc23)nc1	99%

Series 4
Structure (SMILES): COc1cccc(CNC(=O)c2nc3scc(COCc4ccc(C(=O)O)cc4)c3c(=O)[nH]2)c1
Read-out: cell-free assay
Technique: competition with immobilised ligand
Tested at: 1 µM
target	remaining binding [%]
Ribosomal protein S6 kinase alpha-2, C-terminal kinase domain (RPS6KA2, Homo sapiens, UniProt Q15349)	100
Tyrosine-protein kinase ABL1, non-phosphorylated (ABL1, Homo sapiens, UniProt P00519, H396P)	86.4
PIK3CD (Homo sapiens, UniProt O00329)	85.7
DYRK1A (Homo sapiens, UniProt Q13627)	89.5
CSNK1A1 (Homo sapiens, UniProt P48729)	82.1
PAK2 (Homo sapiens, UniProt Q13177)	100
RAF1 (Homo sapiens, UniProt P04049)	85.6
Ribosomal protein S6 kinase alpha-3, N-terminal kinase domain (RPS6KA3, Homo sapiens, UniProt P51812)	100
ROCK1 (Homo sapiens, UniProt Q13464)	100
LATS2 (Homo sapiens, UniProt Q9NRM7)	86.2
MAP2K2 (Homo sapiens, UniProt P36507)	75.1
PKN1 (Homo sapiens, UniProt Q16512)	100
Tyrosine-protein kinase ABL1, non-phosphorylated (ABL1, Homo sapiens, UniProt P00519)	85
YES1 (Homo sapiens, UniProt P07947)	85.2
STK38 (Homo sapiens, UniProt Q15208)	72
HIPK1 (Homo sapiens, UniProt Q86Z02)	88.4
TNK1 (Homo sapiens, UniProt Q13470)	100
